Assay results collected from several papers.
Lines come from different studies, so protocols differ. Numbers after ± are the reported error.

Cc1c(C)c2c(c(C)c1O)CCC(C)(COc1ccc(CC3SC(=O)NC3=O)cc1)O2 (stereo not shown)
IC50 (hepatocytes, iPSC-derived, line W1; cell viability, RealTime-Glo MT; 72 h, differentiation day 23): 16 µM

COc1cccc2c1C(=O)c1c(O)c3c(c(O)c1C2=O)C[C@@](O)(C(=O)CO)C[C@@H]3O[C@H]1C[C@H](N)[C@H](O)[C@H](C)O1
IC50 (HeLa expressing wild-type P-gp; cell viability; 48 h): 0.226 ± 0.015 µM

COc1cc(C[C@H]2COC(=O)[C@@H]2Cc2ccc(O)c(OC)c2)ccc1O
IC50 (neuroblastoma M2, no MYCN induction; cell viability, SRB; without doxycycline): 3.7 µg/mL

CN(C)C/C=C/C(=O)Nc1cc2c(Nc3ccc(F)c(Cl)c3)ncnc2cc1O[C@H]1CCOC1
IC50 (A-431): 1.21 ± 0.02 µM

Cc1c(C(=O)O)ccc2c3n(nc12)[C@@H]1[C@H](C3)N(CC2CC2)[C@@]2(C(=O)Nc3cc(Cl)ccc32)[C@H]1c1cccc(Cl)c1F
IC50 (SJSA-1 (MDM2-amplified); cell proliferation, alamarBlue; 120 h): 0.01 µM

COc1cc(-c2cc(C(C)=O)n3ccccc23)c(OC)cc1Cn1ccnc1
IC50 (MV4-11; cell growth, CellTiter-Glo): 0.07 µM

Cc1cc(Nc2ncc(Cl)c(Nc3ccccc3S(=O)(=O)C(C)C)n2)c(OC(C)C)cc1C1CCNCC1
IC50 (SUP-M2 (NPM-ALK); cell growth; 3 days): 0.02 ± 0.003 µM

Cc1nc(NC(=O)N2CCC[C@H]2C(N)=O)sc1-c1ccnc(C(C)(C)C(F)(F)F)c1
IC50 (HCC1954; western blot, refers to: phospho-PKB/Akt Ser473; 2 h): 0.149 µM

N=C1NC(=O)/C(=C/c2ccc(O)cc2)S1
viability (OCI-Ly1; 0.5 µM, 120 h): 166%

Cc1nc(NC(=O)N2CCC[C@H]2C(N)=O)sc1-c1ccnc(C(C)(C)C(F)(F)F)c1
IC50 (KPL4; CellTiter-Glo; 120 h): 0.687 µM

CC(C)(C)c1cnc(CSc2cnc(NC(=O)C3CCN(C(=O)CCCCCCCN4Cc5cc6c(cc5C4)C(=O)N(C4CCC(=O)NC4=O)C6=O)CC3)s2)o1 (stereo not shown)
IC50 (RH5 rhabdomyosarcoma; cell viability, MTT): 0.0024 µM

CCc1cc2ncc(CN3CCN(c4ccc(C(=O)NC)nc4)CC3)cc2[nH]c1=O
IC50 (A549 wild type; PARylation, inhibitor): 0.00229 µM

COC[C@H](NC(=O)c1ccn(S(C)(=O)=O)c1)C(=O)Nc1nc(-c2cccc(N3C[C@@H](C)O[C@@H](C)C3)n2)cs1
IC50 (normal prostate epithelial cells; cell viability, CellTiter-Glo; 168 h): 0.27 µM

COc1cccc2c1C(=O)c1c(O)c3c(c(O)c1C2=O)C[C@@](O)(C(=O)CO)C[C@@H]3O[C@H]1C[C@H](N)[C@H](O)[C@H](C)O1
IC50 (HC-11; cell growth, WST-1; 72 h): 0.02 µM

O=C(c1cc(Cc2n[nH]c(=O)c3ccccc23)ccc1F)N1CCN(C(=O)C2CC2)CC1
IC50 (A549 wild type; PARylation, inhibitor): 0.0208 µM

CCCCN1C[C@H](O)[C@@H](O)[C@H](O)[C@H]1CO
IC50 (GM2 AB-variant fibroblasts; glycosphingolipid level, LC-MS/MS, refers to: HexCer): 3.6 µM

CC(=O)c1c(O)c(C)c(O)c2c1OC1=CC(=O)C(C(C)=O)C(=O)C12C (single isomer, unassigned; (+))
IC50 (hepatocytes, iPSC-derived, line W1; cell viability; 24 h): 28 µM

N[C@@H](CC(=O)N1CCN(C(c2ccc(F)cc2)c2ccc(F)cc2)CC1)C(=O)N1Cc2ccccc2C1
IC50 (MV4-11; cell viability, CellTiter-Glo; day 5): 1.7 µM

O=C(O)COCC(=O)O
IC50 (hepatocytes, iPSC-derived, line W1; cell viability, RealTime-Glo MT; 48 h, differentiation day 23): 11800 µM

Nc1nnc(-c2ccccc2O)cc1N1CC2CCC(C1)N2c1ccnc(F)c1
IC50 (NCI-H522 SMARCA4/SMARCA2-deficient; cell viability, CellTiter-Glo; 168 h): > 1 µM

C[C@H](Nc1ccc2c(c1)OCCn1cc(N3C(=O)OC[C@H]3C(F)F)nc1-2)C(N)=O
IC50 (HCC1954; western blot, refers to: phospho-S6 Ser235/Ser236; 2 h): 0.0331 µM

CCCCN1C[C@H](O)[C@@H](O)[C@@H](O)[C@H]1CO
IC50 (sample A patient fibroblasts; Gb3 level lowering, LC-MS/MS, refers to: Gb3 d18:1/18:0; 216 h): 11 µM

CC[C@@H](C)[C@H](N)C(=O)N1Cc2ccccc2C1
IC50 (MV4-11; cell viability, CellTiter-Glo; day 2): 1.2 µM

CCOc1cc2ncc(C#N)c(Nc3ccc(OCc4ccccn4)c(Cl)c3)c2cc1NC(=O)/C=C/CN(C)C
IC50 (Ba/F3 expressing HER2 L755A; cell growth, inhibitor, CellTiter-Glo): 0.0053 µM

COc1cc(N2CCC(N3CCN(C)CC3)CC2)ccc1Nc1ncc(Cl)c(Nc2ccccc2P(C)(C)=O)n1
IC50 (Ba/F3 EML4-ALK v3, no mutation; cell viability): 0.007 µM

C#CCCC(=O)SCCNC(=O)CCNC(=O)[C@H](O)C(C)(C)COP(=O)(O)OP(=O)(O)OC[C@H]1O[C@@H](n2cnc3c(N)ncnc32)[C@H](O)[C@@H]1OP(=O)(O)O
viability (OCI-Ly1; 0.5 µM, 120 h): 86.5%

COc1ccc(F)cc1C(=O)NCc1ccc(-c2nn([C@@H](C)C(F)(F)F)c(N)c2C(N)=O)cc1
IC50 (Rec1; refers to: FRACTALKINE; 24 h): > 0.1 µM

Cc1[nH]c(/C=C2\C(=O)Nc3ccc(S(=O)(=O)N(C)c4cccc(Cl)c4)cc32)c(C)c1C(=O)N1CCN(C)CC1
IC50 (SUP-M2 (NPM-ALK); cell growth; 3 days): 2.92 ± 0.34 µM

CCOC(=O)C1=C(C)NC(=S)NC1c1cccc(O)c1 (stereo not shown)
IC50 (human CD34+ haematopoietic cells; cell viability, CellTiter-Glo; 3 days): 28.9 ± 5 µM

Cc1nc(NC(=O)N2CCC[C@H]2C(N)=O)sc1-c1ccnc(C(C)(C)C(F)(F)F)c1
IC50 (SW48 PIK3CA H1047R; 96 h): 0.14 µM

Cc1ncsc1-c1ccc([C@H](C)NC(=O)[C@@H]2C[C@@H](O)CN2C(=O)[C@@H](NC(=O)CN2CCN(c3cc(-c4ccccc4O)nnc3N)CC2)C(C)(C)C)cc1
IC50 (NCI-H522 SMARCA4/SMARCA2-deficient; cell viability, CellTiter-Glo; 7 days): > 1 µM

CC(=O)O[C@@H]1CC[C@@]2(C)[C@@H](CC[C@]3(C)[C@@H]2C(=O)C=C2[C@@H]4[C@@H](C)[C@H](C)CC[C@]4(C)CC[C@]23C)[C@@]1(C)C(=O)O
IC50 (LPS-activated RAW264.7; cytotoxicity, MTT; 24 h): 58.6 µM

Cc1cc(Nc2ncc(Cl)c(Nc3ccccc3S(=O)(=O)C(C)C)n2)c(OC(C)C)cc1C1CCNCC1
IC50 (Ba/F3 EML4-ALK v3, no mutation; cell viability): 0.0107 µM

C=CCN(C)CCCCCCOc1ccc(C(=O)c2ccc(Br)cc2)c(F)c1
IC50 (mouse Mut6 cells; cell viability, CellTiter-Glo; 96 h): 0.0112 µM

Some of these lines once more:
COc1cc(N2CCC(N3CCN(C)CC3)CC2)ccc1Nc1ncc(Cl)c(Nc2ccccc2P(C)(C)=O)n1
IC50 (Ba/F3 EML4-ALK v3, no mutation; cell viability): 0.007 µM

C#CCCC(=O)SCCNC(=O)CCNC(=O)[C@H](O)C(C)(C)COP(=O)(O)OP(=O)(O)OC[C@H]1O[C@@H](n2cnc3c(N)ncnc32)[C@H](O)[C@@H]1OP(=O)(O)O
viability (OCI-Ly1; 0.5 µM, 120 h): 86.5%

COc1ccc(F)cc1C(=O)NCc1ccc(-c2nn([C@@H](C)C(F)(F)F)c(N)c2C(N)=O)cc1
IC50 (Rec1; refers to: FRACTALKINE; 24 h): > 0.1 µM

Cc1[nH]c(/C=C2\C(=O)Nc3ccc(S(=O)(=O)N(C)c4cccc(Cl)c4)cc32)c(C)c1C(=O)N1CCN(C)CC1
IC50 (SUP-M2 (NPM-ALK); cell growth; 3 days): 2.92 ± 0.34 µM
